Assay results gathered from unrelated publications.
Each line is one published result; not all experiments were run side by side. Several values in a cell are separate wells, animals, samples, runs or records. ± marks the error that the study gave. Values after ≈ are worked out from the molar mass of the structure shown.

Cn1c(=O)ccc2ccc(F)c(CCNC[C@H]3CN(c4cnc5c(n4)NC(=O)CO5)C(=O)O3)c21
MIC90 (Burkholderia cepacia): 0.5 µg/mL (≈ 1.07 µM)

CN(C)[C@@H]1C(O)=C(C(N)=O)C(=O)[C@@]2(O)C(O)=C3C(=O)c4c(O)cccc4[C@@](C)(O)[C@H]3C[C@@H]12
MIC (Burkholderia cepacia; 6349): 32 µg/mL

COc1ccc2cc1Oc1ccc(cc1)C[C@H]1c3c(cc4c(c3Oc3cc5c(cc3OC)CCN(C)[C@@H]5C2)OCO4)CCN1C
IC50 (Influenza A virus; viral replication; MDCK, A/HanFang/359/95 (H3N2); 48 h): 3.25 ± 0.07 µM

Nc1c(C(=O)Nc2ccccc2F)sc2nc(-c3ccccc3)cc(C(F)(F)F)c12
IC50 (Mycobacterium tuberculosis; growth inhibition; H37Rv LepB under-expressing): > 100 µM

CC[C@H](C)[C@H](NC(=O)[C@H](C)NC(=O)[C@H](CCCNC(=N)N)NC(=O)[C@H](CCCNC(=N)N)NC(=O)[C@H](CCCNC(=N)N)NC(=O)[C@H](CCCNC(=N)N)NC(=O)[C@H](CCCNC(=N)N)NC(=O)[C@@H](N)CCCNC(=N)N)C(=O)N[C@@H](CO)C(=O)NCC(=O)N[C@@H](CO)C(=O)N[C@@H](CC(C)C)C(=O)N[C@H](C(=O)N[C@H](C(=O)N[C@@H](CC(C)C)C(=O)N[C@@H](Cc1ccccc1)C(=O)NCC(=O)N[C@@H](Cc1ccc(O)cc1)C(N)=O)[C@@H](C)O)C(C)C
MIC (Gram-negative ESKAPE bacteria; range over Gram-negative species): 2 to 8 µM

COc1ccc(-c2cc(C(F)(F)F)c3c(N)c(C(=O)N4CC5(CCOC5)C4)sc3n2)cc1
IC90 (Mycobacterium tuberculosis; H37Rv wild type; 120 h): inactive

CC(C)[C@H](NC(=O)[C@H](CCCNC(=N)N)NC(=O)N[C@@H](Cc1ccccc1)C(=O)O)C(=O)N[C@H](C=O)CCCNC(=N)N
EC50 (human coronavirus 229E; viral replication; Huh-7): 15.2 ± 0.6 µM

COc1ccc(-c2cc(C(F)(F)F)c3c(N)c(C(=O)NC(C)C4CCCCC4)sc3n2)cc1 (centres unmarked)
IC50 (Mycobacterium tuberculosis; growth inhibition; H37Rv LepB under-expressing): 0.56 ± 0.1 µM

CCOC(=O)c1c(C)nc(NCCCNc2ccnc3cc(Cl)ccc23)nc1-c1ccccc1
EC50 (parainfluenza virus 3; viral replication; Vero): > 20 µM

OC(Cn1cncn1)(Cn1cncn1)c1ccc(F)cc1F
relative growth (Saccharomyces cerevisiae; OD600; ΔPdr5 expressing Cdr1; 10 µg/mL; baseline: no-drug control): 1.24% and 2.06% and 1.21%

COc1c(N2CC3CCCNC3C2)c(F)cc2c(=O)c(C(=O)OCc3cnc([N+](=O)[O-])s3)cn(C3CC3)c12 (centres unmarked)
MIC (Mycobacterium chelonae; ATCC 35752): 0.06 µM

COc1ccc(-c2cc(C(F)(F)F)c3c(N)c(C(=O)N4C5CCCC4COC5)sc3n2)cc1
selectivity index (Mycobacterium tuberculosis; H37Rv wild type; baseline: HepG2 IC50 over M. tuberculosis IC90): < 1

COc1ccc(C(=O)Nc2ccccc2C(=O)N[C@H](C(=O)NC2CCCCC2)C(C)C)cc1
EC50 (human coronavirus 229E; viral replication, plaque reduction; MRC-5; 6 days): > 50 µM

CCOC(=O)c1c(C)nc(NCCNc2ccnc3cc(Cl)ccc23)nc1-c1ccccc1
EC50 (parainfluenza virus 3; viral replication; Vero): > 4 µM

COc1ccc(-c2cc(C(F)(F)F)c3c(N)c(C(=O)N4CCCCC4)sc3n2)cc1
IC90 (Mycobacterium tuberculosis; H37Rv wild type; 120 h): inactive

NC(=O)c1ncn([C@@H]2O[C@H](CO)[C@@H](O)[C@H]2O)n1
EC50 (human coronavirus 229E; viral replication; Huh7.5): 18 ± 2 µM

COc1nc(N)nc2c1ncn2[C@@H]1O[C@H](CO)[C@@H](O)[C@@H]1O
anti-influenza activity (Influenza A virus H1N1; ELISA of viral NP; MDCK; 50 µM): inactive

CC(C)[C@H](NC(=O)c1ccccc1NC(=O)c1ccccc1)C(=O)N[C@H](CO)C(C)C
EC50 (human coronavirus 229E; viral replication, plaque reduction; MRC-5; 6 days): > 50 µM

CC(=O)N[C@H]1[C@H]([C@H](O)[C@H](O)CO)OC(C(=O)O)=C[C@@H]1O
EC50 (Influenza A virus; viral replication; A/Paris/908/97 (H3N2); 72 h): 20 µM

CC[C@H](C)[C@H](NC(=O)[C@H](CCCCN)NC(=O)[C@@H](NC(=O)[C@H](Cc1ccc(O)cc1)NC(=O)[C@H](CCCCN)NC(=O)[C@H](CCCCN)NC(=O)CNC(=O)[C@H](CCCCN)NC(=O)[C@@H](NC(=O)[C@H](C)NC(=O)[C@H](CC(C)C)NC(=O)[C@H](Cc1c[nH]c2ccccc12)NC(=O)CNC(=O)[C@@H](NC(=O)[C@H](Cc1ccccc1)NC(=O)[C@H](CCCCN)NC(=O)[C@H](CC(C)C)NC(=O)[C@H](Cc1ccccc1)NC(=O)[C@H](C)NC(=O)CNC(=O)[C@@H](N)CCSC)C(C)C)[C@@H](C)O)C(C)C)C(=O)N[C@@H](C)C(=O)N[C@@H](Cc1c[nH]c2ccccc12)C(=O)N[C@@H](CC(=O)O)C(=O)N[C@@H](Cc1c[nH]cn1)C(=O)N[C@@H](CCCCN)C(=O)NCC(=O)N[C@H](C(=O)N[C@H](C(=O)N[C@@H](CCSC)C(=O)N[C@@H](CCCCN)C(=O)N[C@@H](Cc1c[nH]c2ccccc12)C(=O)N[C@@H](CC(C)C)C(=O)N[C@@H](CC(N)=O)C(=O)N[C@@H](C)C(=O)NCC(=O)N[C@@H](CCC(N)=O)C(=O)N[C@H](C(=O)N[C@@H](Cc1ccccc1)C(=O)N[C@H](C(=O)N[C@@H](Cc1c[nH]c2ccccc12)C(=O)N[C@H](C(=O)N[C@@H](Cc1ccc(O)cc1)C(=O)N[C@@H](CCC(=O)O)C(=O)N[C@@H](CCC(N)=O)C(=O)N[C@H](C(=O)N[C@@H](CCCCN)C(=O)N[C@@H](CCCCN)C(=O)N[C@@H](CC(C)C)C(=O)N[C@@H](Cc1c[nH]c2ccccc12)C(=O)N[C@H](C(=O)O)[C@@H](C)O)[C@@H](C)CC)C(C)C)[C@@H](C)O)[C@@H](C)O)[C@@H](C)CC)[C@@H](C)O
MIC (Salmonella Paratyphi; CECT 554; 37 °C, non-formylated synthetic): > 62.5 µg/mL

COc1ccc(-c2cc(C(F)(F)F)c3c(N)c(C(=O)N4CCC4)sc3n2)cc1
IC50 (Mycobacterium tuberculosis; growth inhibition; H37Rv LepB under-expressing): > 100 µM

Nc1ncnc2c1ncn2C[C@H](O)CO
EC50 (parainfluenza virus 3; viral replication; Vero): > 250 µM

OC(Cn1cncn1)(Cn1cncn1)c1ccc(F)cc1F
MIC (Trichophyton rubrum; ATCC 28189; 50% inhibition): 2 µg/mL

COc1ccc2cc1Oc1ccc(cc1)C[C@H]1c3cc(c(OC)cc3CCN1C)Oc1c(OC)c(OC)cc3c1[C@H](C2)N(C)CC3
IC50 (Influenza A virus; viral replication; MDCK, A/Fort Monmouth/1/1947 (H1N1); 48 h): 4.1 ± 0.69 µM

CCOC(=O)c1c(C)nc(NCCCNc2ccnc3cc(Cl)ccc23)nc1C
EC50 (parainfluenza virus 3; viral replication; Vero): > 100 µM

Nc1ncnc2c1ncn2[C@@H]1O[C@H](CO)C[C@H]1O
virus titre (human coronavirus 229E; Huh-7; concentration not given): 50000 TCID50/mL and 34100 TCID50/mL

O=C(O)C1=CC(=C(c2ccc(O)c(C(=O)O)c2)c2ccc(O)c(C(=O)O)c2)C=CC1=O
reporter activity (lymphocytic choriomeningitis virus; reporter gene; BHK-21; 50 µM, minigenome, Gaussia luciferase; baseline: DMSO): 156%

CC(C)[C@H](NC(=O)c1ccccc1NC(=O)c1ccc(O)cc1)C(=O)N[C@H](CO)C(C)C
EC50 (human coronavirus 229E; viral replication, plaque reduction; MRC-5; 6 days): > 50 µM

C[C@@H](O)[C@H]1C(=O)N2C(C(=O)O)=C(S[C@@H]3CN[C@H](C(=O)N(C)C)C3)[C@H](C)[C@H]12
MIC (Burkholderia cepacia; 6349): 2 µg/mL

COc1ccc(-c2ccc3c(N)c(C(=O)N4CCOCC4)sc3n2)cc1OC
IC50 (Mycobacterium tuberculosis; growth inhibition; H37Rv LepB under-expressing): 24 ± 10 µM

Cc1nc(NCCCNc2ccnc3cc(Cl)ccc23)nc(-c2cccc([N+](=O)[O-])c2)c1C(=O)OC(C)C
EC50 (parainfluenza virus 3; viral replication; Vero): > 20 µM

CCOC(=O)C1=C[C@@H](OC(CC)CC)[C@H](NC(C)=O)[C@@H](N)C1
selectivity index (Influenza A virus; MDCK, A/WSN/1933 (H1N1); baseline: CC50 over EC50): > 46.1

NC(=O)c1nc(F)c[nH]c1=O
reporter activity (lymphocytic choriomeningitis virus; reporter gene; BHK-21; 50 µM, minigenome, Gaussia luciferase; baseline: DMSO): 94.6%

COc1ccc(-c2cc(C(F)(F)F)c3c(N)c(C(=O)NCC45CC6CC(CC(C6)C4)C5)sc3n2)cc1
IC50 (Mycobacterium tuberculosis; growth inhibition; H37Rv LepB under-expressing): 0.36 ± 0.2 µM

CCOC(=O)C1=C[C@@H](OC(CC)CC)[C@H](NC(C)=O)[C@@H](N)C1
lung virus yield (Influenza A virus; A/NWS/33 (H1N1), mouse, lung; oral, 0.2 mg/mouse/day, day 3; baseline: untreated infected control): 11%
